Published values collected from several papers.
Parts stem from different laboratories: compare values within a part only. Changes are numbered by the printed parent chain.

Set 1
Target: Histone acetyltransferase KAT6A, both winged helices, GST fusion (KAT6A, Homo sapiens, UniProt Q92794, residues 1-181)
Technique: protein binding microarray
Molecule type: double-stranded DNA, one strand shown
Matrix: in vitro
Concentration: not given
Notes: 8-mer, flanks averaged, mean of 2 arrays, mostly near background
Reference: not given
Reading: higher = stronger binding
Endpoint: E-score
Construct (chain): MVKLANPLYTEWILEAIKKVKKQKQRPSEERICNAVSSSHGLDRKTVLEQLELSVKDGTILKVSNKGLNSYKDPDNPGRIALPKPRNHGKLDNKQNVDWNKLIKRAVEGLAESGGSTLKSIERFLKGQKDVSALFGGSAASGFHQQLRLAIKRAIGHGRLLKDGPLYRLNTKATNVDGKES
Strand = ATGTCAAA; result = 0.00085
Strand = CCAACGGC; result = 0.198
Strand = CGAAGCAC; result = -0.182
Strand = CCCCCTGC; result = -0.0787
Strand = TACTCAGA; result = -0.0453
Strand = CCTCCCGA; result = -0.0149
Strand = ACAACTAC; result = -0.147
Strand = GAAACAAC; result = -0.045
Strand = AGCAAGCT; result = -0.246
Strand = CTGGAACA; result = -0.171
Strand = TGCGCAAA; result = 0.166
Strand = ACCAGAAC; result = -0.0559
Strand = GAACGACA; result = -0.12
Strand = ATCCAAGC; result = -0.114
Strand = GAATTTGC; result = -0.0247
Strand = ATCGGGAG; result = -0.0551
Strand = GTAAACGA; result = 0.0806
Strand = CTTGCCCA; result = -0.119
Strand = AACTACCT; result = -0.143
Strand = CGGGGAAG; result = 0.186
Strand = GCCCCCAA; result = -0.173
Strand = CGTGCGGC; result = 0.204

Set 2
Target: TEF, bZIP domain (human)
Technique: DHFR protein complementation
Matrix: yeast
Notes: single substitutions, most at no-binding floor
Reference: wild-type JUN-FOS pair
Reading: higher = stronger binding
Endpoint: binding fitness
Parent: JUN, bZIP domain (human); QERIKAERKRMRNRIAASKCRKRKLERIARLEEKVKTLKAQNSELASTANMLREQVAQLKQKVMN; partner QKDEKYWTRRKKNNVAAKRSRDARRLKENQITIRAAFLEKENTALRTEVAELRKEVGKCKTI
Variant = E32S; result = -1.45 natural log
Variant = N42Q; result = -1.56 natural log
Variant = K39S; result = -1.48 natural log
Variant = A46E; result = -1.51 natural log
Variant = V35S; result = -1.47 natural log
Variant = V35F; result = -1.21 natural log
Variant = T48S; result = -1.51 natural log
Variant = L52Q; result = -1.57 natural log
Variant = R30V; result = -1.44 natural log
Variant = A49C; result = -1.27 natural log
Variant = A40H; result = -1.43 natural log
Variant = K34A; result = -1.28 natural log
Variant = A46G; result = -1.47 natural log
Variant = L31T; result = -1.53 natural log
Variant = L38D; result = -1.52 natural log
Variant = S43C; result = -1.25 natural log
Variant = V35A; result = -1.32 natural log
Variant = Q41I; result = -1.48 natural log
Variant = L45R; result = -1.51 natural log
Variant = T37G; result = -1.38 natural log
Variant = Q55A; result = -1.19 natural log
Variant = L45G; result = -1.51 natural log
Variant = R53D; result = -1.49 natural log
Variant = N42Y; result = -1.49 natural log

Set 3
Target: RNA binding protein fox-1 homolog 2, RRM domain, GST-SBP tag (RBFOX2, Homo sapiens, UniProt O43251-10, residues 100-194)
Technique: RNA Bind-n-Seq
Molecule type: RNA
Matrix: in vitro
Concentration: 365 nM
Notes: natural RNA segment, single round, ends assumed
Reference: no-protein control
Reading: higher = stronger binding
Endpoint: RBNS enrichment (R)
Construct (chain): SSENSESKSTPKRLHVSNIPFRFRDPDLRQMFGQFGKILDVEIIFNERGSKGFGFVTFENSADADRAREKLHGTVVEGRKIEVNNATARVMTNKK
Strand = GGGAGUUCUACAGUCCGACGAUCGACAUGAAAUCCAGGCUGAGUUGGUCUCAGAUAGCGAUGAGGAACUUGUUUGGUACUGGAGUAAAGGUGACUCUUGCUAUAUUUUAGCAAAGAGACUGGCUGCAUUUUGCUGGAAUUCUCGGGUGCCAA; result = 1.03
Strand = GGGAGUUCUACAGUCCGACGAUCGGGCCUCCCCACCUGCUUUGGGGAGCUGUCUGUGCUGGGAGUGCCAGGCAUCCCAUGGGACCCAUCACUGCCAGUGUCUGUGCCUCCCAGAGGUCAGCCGUGUCUGCCCUUGGAAUUCUCGGGUGCCAA; result = 0.266
Strand = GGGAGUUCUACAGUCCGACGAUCGAGGCUGCUCCUGCCCCGCGCCGCCUCCGCCGAUCUGUGGACCAGGAUUUGGGUCCCGAGGUGCCCCCUGAGAACGUACUGGGGGCUCUGCUACGCGUCAAACGCCUGGAUGGAAUUCUCGGGUGCCAA; result = 0.622
Strand = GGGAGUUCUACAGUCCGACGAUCCUGCCUCACCUGCUUCGCCACAGACUCUUGUUCCCAGCCCCUUGGGGCCUCCGUGUUUGGGGUGGGGGAGCUGCUUAGAGACUGUGCCCGUCCUCGGCCCCCCACCCUGAUGGAAUUCUCGGGUGCCAA; result = 0.557
Strand = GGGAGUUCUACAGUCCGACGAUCAAGAAAAUUAUUGAUGAAGUGGCCUUGUAAGUACAUGGUCUCUGAAAAAAAUUCAAGUUUUGUUCUUAGGAUGUCCAAUAGAAGAUAACUGUGGAUGAUAACUAAUUCUAUGGAAUUCUCGGGUGCCAA; result = 0.714
Strand = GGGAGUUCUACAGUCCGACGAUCUAUUGGGUGGGUUUACUCUUAGAAUCGCAUGCUGUAGAAAUGCUCAAAAGUGCAUAUGGGACUCAGUCCUUAGGUGUUCUUUUUCUUUUAAGAAAUAACCUCUUACAGUUUGGAAUUCUCGGGUGCCAA; result = 0.351
Strand = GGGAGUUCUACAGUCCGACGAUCAGCAGGAAGGAGCUCUUUUCUGUUCCCAAGCCUCAGAACUCUUGAGCUGUGGCUUACUUGCUGUCUUCACCAGGUUCAAGCUCCGUGGGCCACACUGCUGCUGUGCCAAGUGGAAUUCUCGGGUGCCAA; result = 0.257
Strand = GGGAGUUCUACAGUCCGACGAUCUUCCUAUGAGCAGUUCAACCUGUGCCUGCAAAGCCAAAGGGGCUGAGGUACAUUAGAGCAUGGAGGACACCUCCACAUCUUUUGAAAUCCAGGCAAGGAGACCAAAACUUUGGAAUUCUCGGGUGCCAA; result = 0.306
Strand = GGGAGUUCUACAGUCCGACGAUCCCAUGGUACAGACUGUUCCAGAUCACCAAGAAAGGUACUUUCAGGAUCCCAGUGCCUAGCACUGGGUAAGCUACCCCAGACAACUAGCCUUCCUUAUACCCAAACGCUGGUGGAAUUCUCGGGUGCCAA; result = 0.307
Strand = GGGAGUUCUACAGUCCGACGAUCUCUAUUACUCUUACACUUUAGUUUUACCAUUUGAGUAGCCACUUAUUCACCAGAGUUGGAAUUGAGAAAUUUUGGGCUUUCCAAAAUUAACCUUUAAACUUAAAAUUGAUUGGAAUUCUCGGGUGCCAA; result = 0.455
Strand = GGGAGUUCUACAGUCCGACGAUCUGCUGCAAGGACCAGAGCCAGCCCCCAGGAGCCUCAGGGCCCACUUAGGAAGGAUGCCUUGUGCCUAUGGGCCCUUUGGUGACAUGUGGGGCUCUGGAUCCUUGGGUGUCUGGAAUUCUCGGGUGCCAA; result = 6.23
Strand = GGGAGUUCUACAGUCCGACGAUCUACUGAUUAAAAUAUGUCUGUCUAAAGGGAUCUACUACUAUUUGCUUUUAAAAAAGUGUUCCCUAUUUAUUUAGGAAAAAGUGAAGCAAGCAACUGAAUUUAUAUGUAAAUGGAAUUCUCGGGUGCCAA; result = 1.18

Set 4
Target: CCNB3, cyclin fold, Cln2 fusion (human)
Technique: yeast growth competition, sequencing
Matrix: yeast
Notes: weak parent motif
Reference: not given
Reading: higher = stronger binding
Endpoint: normalised enrichment score
Parent: HASPIN docking peptide (human); ASLRSVLFGLMNS
Variant = ASLASVLFGLMNS [R4A]; result = -0.347
Variant = ASARSVLFGLMNS [L3A]; result = 0.417
Variant = ASLRSVLAGLMNS [F8A]; result = 0.0991
Variant = ASLRSVLFGLMNA [S13A]; result = -0.164
Variant = ASLRSVLFGLMAS [N12A]; result = 0.766
Variant = ASLRSVLFGLANS [M11A]; result = 0.666

Some of these lines once more (set 3):
Strand = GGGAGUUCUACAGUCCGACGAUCGGGCCUCCCCACCUGCUUUGGGGAGCUGUCUGUGCUGGGAGUGCCAGGCAUCCCAUGGGACCCAUCACUGCCAGUGUCUGUGCCUCCCAGAGGUCAGCCGUGUCUGCCCUUGGAAUUCUCGGGUGCCAA; result = 0.266
Strand = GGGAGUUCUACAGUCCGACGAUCGAGGCUGCUCCUGCCCCGCGCCGCCUCCGCCGAUCUGUGGACCAGGAUUUGGGUCCCGAGGUGCCCCCUGAGAACGUACUGGGGGCUCUGCUACGCGUCAAACGCCUGGAUGGAAUUCUCGGGUGCCAA; result = 0.622
Strand = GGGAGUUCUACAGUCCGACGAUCCUGCCUCACCUGCUUCGCCACAGACUCUUGUUCCCAGCCCCUUGGGGCCUCCGUGUUUGGGGUGGGGGAGCUGCUUAGAGACUGUGCCCGUCCUCGGCCCCCCACCCUGAUGGAAUUCUCGGGUGCCAA; result = 0.557
Strand = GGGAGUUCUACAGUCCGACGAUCAAGAAAAUUAUUGAUGAAGUGGCCUUGUAAGUACAUGGUCUCUGAAAAAAAUUCAAGUUUUGUUCUUAGGAUGUCCAAUAGAAGAUAACUGUGGAUGAUAACUAAUUCUAUGGAAUUCUCGGGUGCCAA; result = 0.714
Strand = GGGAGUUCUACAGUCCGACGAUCUAUUGGGUGGGUUUACUCUUAGAAUCGCAUGCUGUAGAAAUGCUCAAAAGUGCAUAUGGGACUCAGUCCUUAGGUGUUCUUUUUCUUUUAAGAAAUAACCUCUUACAGUUUGGAAUUCUCGGGUGCCAA; result = 0.351
Strand = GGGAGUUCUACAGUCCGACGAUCAGCAGGAAGGAGCUCUUUUCUGUUCCCAAGCCUCAGAACUCUUGAGCUGUGGCUUACUUGCUGUCUUCACCAGGUUCAAGCUCCGUGGGCCACACUGCUGCUGUGCCAAGUGGAAUUCUCGGGUGCCAA; result = 0.257
Strand = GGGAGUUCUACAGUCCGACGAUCUUCCUAUGAGCAGUUCAACCUGUGCCUGCAAAGCCAAAGGGGCUGAGGUACAUUAGAGCAUGGAGGACACCUCCACAUCUUUUGAAAUCCAGGCAAGGAGACCAAAACUUUGGAAUUCUCGGGUGCCAA; result = 0.306
